Results from different studies.
JAK3 JH1: Tyrosine-protein kinase JAK3, JH1 (JAK3, Homo sapiens, UniProt P52333)
Sequence of UniProt P52333 (whole entry, looked up): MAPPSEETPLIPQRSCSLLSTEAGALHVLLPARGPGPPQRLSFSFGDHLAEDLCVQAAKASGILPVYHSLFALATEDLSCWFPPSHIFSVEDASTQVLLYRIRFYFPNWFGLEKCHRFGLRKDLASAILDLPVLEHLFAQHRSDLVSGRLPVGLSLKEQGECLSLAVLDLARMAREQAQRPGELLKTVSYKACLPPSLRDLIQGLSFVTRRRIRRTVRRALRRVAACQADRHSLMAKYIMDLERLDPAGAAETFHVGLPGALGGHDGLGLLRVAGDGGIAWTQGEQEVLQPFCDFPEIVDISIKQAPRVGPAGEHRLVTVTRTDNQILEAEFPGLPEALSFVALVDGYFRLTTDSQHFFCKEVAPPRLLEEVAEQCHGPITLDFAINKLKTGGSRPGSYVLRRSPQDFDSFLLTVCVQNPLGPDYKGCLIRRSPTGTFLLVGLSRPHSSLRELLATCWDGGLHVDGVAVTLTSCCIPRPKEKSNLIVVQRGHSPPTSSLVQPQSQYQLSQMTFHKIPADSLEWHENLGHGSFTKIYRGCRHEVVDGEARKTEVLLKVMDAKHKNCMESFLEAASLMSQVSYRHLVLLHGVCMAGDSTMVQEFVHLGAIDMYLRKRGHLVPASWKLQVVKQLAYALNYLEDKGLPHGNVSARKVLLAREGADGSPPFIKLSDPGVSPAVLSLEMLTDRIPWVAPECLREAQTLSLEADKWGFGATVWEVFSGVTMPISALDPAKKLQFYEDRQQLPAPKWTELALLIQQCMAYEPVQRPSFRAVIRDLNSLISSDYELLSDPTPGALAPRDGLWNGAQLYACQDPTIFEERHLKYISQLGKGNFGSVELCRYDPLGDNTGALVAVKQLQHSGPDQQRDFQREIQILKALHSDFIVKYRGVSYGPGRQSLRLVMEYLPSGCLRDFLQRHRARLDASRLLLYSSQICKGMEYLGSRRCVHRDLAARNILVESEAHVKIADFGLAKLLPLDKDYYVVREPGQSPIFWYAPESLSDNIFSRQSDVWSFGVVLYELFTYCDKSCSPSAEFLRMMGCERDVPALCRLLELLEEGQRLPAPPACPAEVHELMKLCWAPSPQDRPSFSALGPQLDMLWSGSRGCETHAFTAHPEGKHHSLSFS
JAK3: Tyrosine-protein kinase JAK3 (JAK3, Homo sapiens, UniProt P52333)

SMILES | target | assay | setting | how to read | quantity | value
C[C@H](NCc1ccc(-c2ccc(C(F)(F)F)cc2)cc1)C(N)=O | JAK3 JH1 | cell-free assay, competition with immobilised ligand | 1 µM | – | inhibition | 10%
O=C1NC(=O)c2c1c1cc(F)c[n+]3c1c1c2c2cc(O)ccc2[n]1[Ru-4]312([N]=C=S)[S+]3CC[S+]1CC[S+]2CC3 (stereo not drawn) | JAK3 | enzyme activity | 100 nM, human enzyme, added: 10 µM ATP | relative to: untreated | remaining activity | 61%
CC(C)[C@H]1NC(=O)C[C@H]2/C=C/CCSSC[C@@H](NC1=O)C(=O)N[C@H](Cc1cccc3ccccc13)C(=O)NCC(=O)O2 | JAK3 | enzyme activity, inhibitor | 10 µM | – | inhibition | 0.6%
CCOC(=O)[C@@H]1Cc2c(cc([N+](=O)[O-])cc2[N+](=O)[O-])[C@H](O)[C@]12C(=O)Nc1ccc(Br)cc12 | JAK3 | binding, competition with immobilised ligand | 0.1 µM | – | remaining binding | 46%
CN(C)[C@H]1C[C@@]23CC[C@@]4(O2)C(=CC[C@]2(C)[C@@H](c5ccc6ccncc6c5)CC[C@H]24)C=C3[C@@H](O)[C@@H]1O | Tyrosine-protein kinase JAK3, JH2 pseudokinase domain (JAK3, Homo sapiens, UniProt P52333) | ATP probe labelling, inhibitor, KiNativ profiling | 1 µM | – | inhibition | 6.4%
O=C(N[C@@H]1c2ccccc2C[C@H]1N1CCCC1)c1ccc(-c2ccnc3[nH]ccc23)nc1 | JAK3 JH1 | binding, competition with immobilised ligand | 3 µM | – | remaining binding | 0%
Nc1ccc(/C=C/C(=O)N2CCc3c(oc4c(-c5ccc(F)cc5)cc(-c5ccc(C(=O)N6CCC(F)(F)CC6)cn5)cc34)C2)cn1 | JAK3 JH1 | binding, competition with immobilised ligand | 1 µM | – | remaining binding | 83%
N[C@H](C(=O)N1CCCC1)C1CCN(c2nccc3c(-c4ncc(Cl)cc4Cl)cccc23)CC1 | JAK3 | kinase activity, inhibitor | 10 µM, added: ATP 1 mM | – | inhibition | 5.2%
CS(C)(=O)=Nc1ccc(-c2ccc(-c3nc4cc(O[C@@H]5CO[C@H]6[C@@H]5OC[C@H]6O)[nH]c4cc3F)cc2)cc1 | JAK3 | enzyme activity, inhibitor | 10 µM | – | inhibition | 14%

Excerpt of the above:
SMILES | target | assay | setting | how to read | quantity | value
Nc1ccc(/C=C/C(=O)N2CCc3c(oc4c(-c5ccc(F)cc5)cc(-c5ccc(C(=O)N6CCC(F)(F)CC6)cn5)cc34)C2)cn1 | JAK3 JH1 | binding, competition with immobilised ligand | 1 µM | – | remaining binding | 83%
